Experimental data gathered from unrelated publications.
Numbered parts are unrelated; each lists some results of a single study. Positions count from the first letter of the parent shown.
UniProt P41143, sequence (whole entry, looked up): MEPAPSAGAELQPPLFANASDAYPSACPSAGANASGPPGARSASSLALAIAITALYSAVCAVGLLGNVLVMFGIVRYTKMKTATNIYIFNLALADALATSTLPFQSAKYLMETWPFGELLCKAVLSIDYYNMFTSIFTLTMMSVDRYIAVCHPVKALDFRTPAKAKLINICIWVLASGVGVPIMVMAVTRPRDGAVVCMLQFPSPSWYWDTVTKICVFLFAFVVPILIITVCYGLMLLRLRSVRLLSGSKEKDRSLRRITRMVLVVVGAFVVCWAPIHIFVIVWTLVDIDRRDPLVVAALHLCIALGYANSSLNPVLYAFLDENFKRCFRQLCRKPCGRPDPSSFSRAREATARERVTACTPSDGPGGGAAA
UniProt P35372, sequence (whole entry, looked up): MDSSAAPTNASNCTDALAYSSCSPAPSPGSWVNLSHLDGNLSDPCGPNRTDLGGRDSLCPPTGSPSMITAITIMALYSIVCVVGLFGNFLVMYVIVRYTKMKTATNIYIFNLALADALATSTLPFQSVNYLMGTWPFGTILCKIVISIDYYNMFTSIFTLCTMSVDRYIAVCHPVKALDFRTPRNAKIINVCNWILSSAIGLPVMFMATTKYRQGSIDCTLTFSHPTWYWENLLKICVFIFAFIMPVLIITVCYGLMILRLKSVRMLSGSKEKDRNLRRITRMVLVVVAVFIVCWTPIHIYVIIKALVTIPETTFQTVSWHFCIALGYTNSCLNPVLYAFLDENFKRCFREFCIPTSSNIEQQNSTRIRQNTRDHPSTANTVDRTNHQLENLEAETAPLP

Study 1 — target: vanadate, free oxyanion; technique: microfluidic competitive inhibition; matrix: in vitro, cell-free expressed; tested at: not given; reading: lower = stronger binding
Notes: derived from inhibition constants, unchanged parent 676 nM
Starting sequence: PafA, mature enzyme, eGFP fusion (Elizabethkingia meningoseptica, UniProt Q9KJX5); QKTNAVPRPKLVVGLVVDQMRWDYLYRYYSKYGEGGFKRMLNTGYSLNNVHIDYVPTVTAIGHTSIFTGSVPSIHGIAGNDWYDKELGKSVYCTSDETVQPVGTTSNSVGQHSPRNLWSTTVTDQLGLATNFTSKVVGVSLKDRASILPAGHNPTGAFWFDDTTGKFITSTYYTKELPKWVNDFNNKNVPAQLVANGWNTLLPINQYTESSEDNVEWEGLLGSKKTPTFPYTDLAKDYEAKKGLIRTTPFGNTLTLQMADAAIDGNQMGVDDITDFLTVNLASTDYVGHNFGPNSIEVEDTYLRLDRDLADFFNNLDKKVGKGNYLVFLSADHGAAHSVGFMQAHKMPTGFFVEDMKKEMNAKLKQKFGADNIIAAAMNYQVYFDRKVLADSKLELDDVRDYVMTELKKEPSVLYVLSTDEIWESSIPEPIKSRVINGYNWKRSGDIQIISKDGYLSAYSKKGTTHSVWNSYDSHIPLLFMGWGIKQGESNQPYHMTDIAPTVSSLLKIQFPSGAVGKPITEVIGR
Change	oxyanion analog dissociation constant
V12A	674 nM
T226V	746 nM
S392G	680 nM
P114G	1.1 µM
V327A	643 nM
K409V	645 nM
W180V	2.32 µM
Y28G	853 nM

Study 2 — read-out: ligand displacement; tested at: 10 µM
Compound: CC(=O)C1=C(C)N(c2cccc(C(F)(F)F)c2)C(=O)N[C@H]1c1ccc(C#N)nc1
target	inhibition
OPRD1 (Homo sapiens, UniProt P41143)	4.95%
OPRM1 (Homo sapiens, UniProt P35372)	2.02%
DRD5 (Homo sapiens, UniProt P21918)	5.12%

Study 3 — read-out: phage display binding; technique: phage display panning NGS; form: peptide; notes: panning round 3; baseline: OGT-panned over input library
Target: UDP-N-acetylglucosamine--peptide N-acetylglucosaminyltransferase 110 kDa subunit (OGT, Homo sapiens, UniProt O15294)
Construct (O15294 1-1046): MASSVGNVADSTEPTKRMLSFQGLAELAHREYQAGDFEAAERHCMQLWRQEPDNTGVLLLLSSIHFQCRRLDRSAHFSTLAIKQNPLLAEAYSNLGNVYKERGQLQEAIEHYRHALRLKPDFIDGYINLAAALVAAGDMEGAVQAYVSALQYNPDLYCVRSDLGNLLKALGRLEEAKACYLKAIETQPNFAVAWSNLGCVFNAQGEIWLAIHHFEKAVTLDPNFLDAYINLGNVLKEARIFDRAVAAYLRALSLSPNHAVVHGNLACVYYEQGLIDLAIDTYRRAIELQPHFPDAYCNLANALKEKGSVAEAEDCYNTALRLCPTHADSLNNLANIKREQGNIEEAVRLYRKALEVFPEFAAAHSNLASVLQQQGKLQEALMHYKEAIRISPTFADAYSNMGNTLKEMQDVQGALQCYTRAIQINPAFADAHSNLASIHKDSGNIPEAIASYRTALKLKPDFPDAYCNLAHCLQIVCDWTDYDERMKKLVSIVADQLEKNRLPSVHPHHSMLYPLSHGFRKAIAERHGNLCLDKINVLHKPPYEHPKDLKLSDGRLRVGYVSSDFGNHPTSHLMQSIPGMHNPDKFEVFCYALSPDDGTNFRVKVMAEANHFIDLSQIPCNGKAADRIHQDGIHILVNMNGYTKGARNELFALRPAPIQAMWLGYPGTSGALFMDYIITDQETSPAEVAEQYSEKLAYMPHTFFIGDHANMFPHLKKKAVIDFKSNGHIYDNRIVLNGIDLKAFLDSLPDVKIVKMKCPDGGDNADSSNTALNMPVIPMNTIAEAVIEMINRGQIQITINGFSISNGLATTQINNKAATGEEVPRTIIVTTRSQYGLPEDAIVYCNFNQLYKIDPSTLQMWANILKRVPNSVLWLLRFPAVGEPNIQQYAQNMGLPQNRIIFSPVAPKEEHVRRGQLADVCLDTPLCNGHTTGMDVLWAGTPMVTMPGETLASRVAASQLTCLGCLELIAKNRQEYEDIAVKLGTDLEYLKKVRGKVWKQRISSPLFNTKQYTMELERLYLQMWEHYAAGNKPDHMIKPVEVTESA
Sequence	fold enrichment
NVLIFPKYQISYSK	3.89
YAPQYQILFNYNIKL	1.94
QDFKPMYQIKIRSHA	7.77
VMELQFLPHYQIEAF	4.06
QQYFLPMYQIQFRNM	3.92
MWSPTVPPKYIIKYK	2.59
QPTTSFPPKYLITYT	2.91
FMPMYEIKYAKREDN	2.48

Other studies, line by line
SMILES	read-out	technique	matrix	tested at	notes	quantity	value
COc1ccc(NC=C2C(=O)NC(=O)N(c3ccc(C)cc3)C2=O)cc1	AlphaScreen signal	AlphaScreen counter screen	His6 peptide without bromodomain	50 µM	assay interference check	inhibition	-2.2%
